Measurements pooled from the literature.
Lines come from different studies, so protocols differ.
MTNR1A: Melatonin receptor type 1A (MTNR1A, Homo sapiens, UniProt P48039)
UniProt P48039, sequence (whole entry, looked up): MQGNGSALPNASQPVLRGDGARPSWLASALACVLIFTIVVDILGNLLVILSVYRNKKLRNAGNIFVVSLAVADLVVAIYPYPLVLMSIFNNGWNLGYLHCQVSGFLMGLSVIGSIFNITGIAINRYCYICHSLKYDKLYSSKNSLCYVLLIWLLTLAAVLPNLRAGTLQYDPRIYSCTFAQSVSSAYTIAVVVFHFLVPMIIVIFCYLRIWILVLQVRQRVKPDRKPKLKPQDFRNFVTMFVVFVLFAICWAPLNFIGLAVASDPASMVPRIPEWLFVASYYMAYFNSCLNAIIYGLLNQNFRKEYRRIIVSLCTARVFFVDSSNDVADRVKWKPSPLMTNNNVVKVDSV
HTR1F: 5-hydroxytryptamine receptor 1F (HTR1F, Homo sapiens, UniProt P30939)
UniProt P30939, sequence (whole entry, looked up): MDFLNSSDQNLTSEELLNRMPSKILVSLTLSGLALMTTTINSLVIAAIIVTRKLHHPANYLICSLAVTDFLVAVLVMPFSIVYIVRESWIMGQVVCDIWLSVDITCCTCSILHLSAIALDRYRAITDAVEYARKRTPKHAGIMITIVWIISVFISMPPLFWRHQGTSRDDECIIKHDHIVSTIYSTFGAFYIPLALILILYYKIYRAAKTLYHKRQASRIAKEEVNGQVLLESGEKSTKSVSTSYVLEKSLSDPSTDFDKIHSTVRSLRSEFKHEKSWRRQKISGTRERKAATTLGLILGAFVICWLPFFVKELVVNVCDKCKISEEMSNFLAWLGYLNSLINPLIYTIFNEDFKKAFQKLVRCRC
AVPR2: Vasopressin V2 receptor (AVPR2, Homo sapiens, UniProt P30518)
UniProt P30518, sequence (whole entry, looked up): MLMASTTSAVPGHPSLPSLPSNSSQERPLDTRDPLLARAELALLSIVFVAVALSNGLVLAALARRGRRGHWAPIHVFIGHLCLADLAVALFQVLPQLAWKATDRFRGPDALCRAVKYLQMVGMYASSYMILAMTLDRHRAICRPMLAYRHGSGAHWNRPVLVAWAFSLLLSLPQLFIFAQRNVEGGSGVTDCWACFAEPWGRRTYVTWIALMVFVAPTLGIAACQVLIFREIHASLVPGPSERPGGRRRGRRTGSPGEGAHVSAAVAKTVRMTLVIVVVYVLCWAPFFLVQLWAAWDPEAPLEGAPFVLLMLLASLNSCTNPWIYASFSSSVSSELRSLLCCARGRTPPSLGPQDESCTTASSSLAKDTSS
MTNR1B: Melatonin receptor type 1B (MTNR1B, Homo sapiens, UniProt P49286)
UniProt P49286, sequence (whole entry, looked up): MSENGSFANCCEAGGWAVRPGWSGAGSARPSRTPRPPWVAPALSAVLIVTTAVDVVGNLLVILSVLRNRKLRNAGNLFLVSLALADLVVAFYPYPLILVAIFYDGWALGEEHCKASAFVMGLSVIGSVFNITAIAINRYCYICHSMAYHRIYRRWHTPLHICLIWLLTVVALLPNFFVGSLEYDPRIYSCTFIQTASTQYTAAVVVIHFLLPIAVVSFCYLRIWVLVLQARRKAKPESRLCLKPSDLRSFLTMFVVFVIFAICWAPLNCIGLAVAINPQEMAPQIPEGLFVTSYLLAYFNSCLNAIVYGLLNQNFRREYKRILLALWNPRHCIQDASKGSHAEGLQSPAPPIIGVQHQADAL
UniProt P0DMS8, sequence (whole entry, unmodified, looked up): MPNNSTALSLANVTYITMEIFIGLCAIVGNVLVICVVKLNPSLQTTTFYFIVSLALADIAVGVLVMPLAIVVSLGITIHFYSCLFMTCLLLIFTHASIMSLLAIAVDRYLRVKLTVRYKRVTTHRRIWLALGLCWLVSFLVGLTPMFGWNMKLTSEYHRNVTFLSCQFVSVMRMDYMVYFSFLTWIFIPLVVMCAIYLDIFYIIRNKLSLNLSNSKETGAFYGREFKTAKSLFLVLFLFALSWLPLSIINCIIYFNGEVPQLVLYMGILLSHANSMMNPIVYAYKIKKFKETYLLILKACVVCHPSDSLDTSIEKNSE
UniProt Q16581, sequence (whole entry, looked up): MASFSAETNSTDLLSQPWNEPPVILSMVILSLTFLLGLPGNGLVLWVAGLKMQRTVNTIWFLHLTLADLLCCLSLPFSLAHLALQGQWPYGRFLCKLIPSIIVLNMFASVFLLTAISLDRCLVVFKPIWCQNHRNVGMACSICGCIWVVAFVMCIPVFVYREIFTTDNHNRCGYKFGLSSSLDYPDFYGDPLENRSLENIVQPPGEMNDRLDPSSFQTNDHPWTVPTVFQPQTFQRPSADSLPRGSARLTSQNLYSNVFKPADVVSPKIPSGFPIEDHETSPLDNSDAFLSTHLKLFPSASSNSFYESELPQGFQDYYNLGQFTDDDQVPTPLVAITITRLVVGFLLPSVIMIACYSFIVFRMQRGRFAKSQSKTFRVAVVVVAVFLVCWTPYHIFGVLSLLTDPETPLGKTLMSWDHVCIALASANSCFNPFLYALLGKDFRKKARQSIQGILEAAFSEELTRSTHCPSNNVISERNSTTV
UniProt P41968, sequence (whole entry, looked up): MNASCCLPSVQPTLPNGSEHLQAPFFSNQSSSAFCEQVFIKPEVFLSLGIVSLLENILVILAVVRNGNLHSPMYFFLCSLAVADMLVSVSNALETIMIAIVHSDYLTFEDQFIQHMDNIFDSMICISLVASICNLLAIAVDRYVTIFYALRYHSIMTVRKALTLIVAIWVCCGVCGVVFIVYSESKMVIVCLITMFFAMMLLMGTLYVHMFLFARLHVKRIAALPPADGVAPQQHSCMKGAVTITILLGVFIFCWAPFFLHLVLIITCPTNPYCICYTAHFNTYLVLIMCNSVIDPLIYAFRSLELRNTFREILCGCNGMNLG
UniProt Q9NQS5, sequence (whole entry, looked up): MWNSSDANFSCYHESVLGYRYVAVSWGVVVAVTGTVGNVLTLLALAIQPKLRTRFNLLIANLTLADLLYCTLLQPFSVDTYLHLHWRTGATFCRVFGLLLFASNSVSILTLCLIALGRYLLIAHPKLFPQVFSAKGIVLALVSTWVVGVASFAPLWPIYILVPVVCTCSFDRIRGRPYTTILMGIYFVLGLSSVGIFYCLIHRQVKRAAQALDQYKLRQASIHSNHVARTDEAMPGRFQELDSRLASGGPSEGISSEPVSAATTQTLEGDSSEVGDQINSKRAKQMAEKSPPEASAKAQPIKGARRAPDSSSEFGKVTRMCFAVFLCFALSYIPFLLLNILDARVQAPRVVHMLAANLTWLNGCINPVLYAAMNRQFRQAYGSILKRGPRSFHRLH

CC(C)C[C@H](NC(=O)[C@@H](N)[C@@H](C)O)C(=O)N[C@@H](CCC(N)=O)C(=O)N1CCC[C@H]1C(=O)N1CCC[C@H]1C(=O)N[C@@H](C)C(=O)N[C@@H](CO)C(=O)N[C@@H](CO)C(=O)N[C@@H](CCCNC(=N)N)C(=O)N[C@H](CCCNC(=N)N)C(=O)N[C@@H](CCCNC(=N)N)C(=O)N[C@@H](Cc1c[nH]cn1)C(=O)N[C@@H](Cc1ccccc1)C(=O)N[C@@H](Cc1c[nH]cn1)C(=O)N[C@@H](Cc1c[nH]cn1)C(=O)N[C@@H](C)C(=O)N[C@@H](CC(C)C)C(=O)N1CCC[C@H]1C(=O)N1CCC[C@H]1C(=O)N[C@@H](C)C(=O)N[C@@H](CCCNC(=N)N)C(=O)O — EC50 (C3AR1 (Homo sapiens, UniProt Q16581); β-arrestin recruitment, agonist): 209 nM
COc1cc(I)c2[nH]cc(CCNC(C)=O)c2c1 — EC50 (MTNR1A; cAMP, agonist, TR-FRET): 110 nM
CCCC[C@H](NC(C)=O)C(=O)N[C@H]1CC(=O)NCCCC[C@@H](C(=O)N[C@@H](C(=O)N2CCC[C@@H]2C(N)=O)C(C)C)NC(=O)[C@H](Cc2c[nH]c3ccccc23)NC(=O)[C@H](CCCN=C(N)N)NC(=O)[C@@H](Cc2ccc3ccccc3c2)NC(=O)[C@@H]2CCCN2C1=O — EC50 (MC3R (Homo sapiens, UniProt P41968); cAMP, agonist): > 1000 nM
CN1CCC(=C2c3ccccc3Sc3ccccc32)CC1 — EC50 (HTR1F; G protein activation, agonist, BRET): 371 nM
O=C(/C=C/c1ccccc1)/C=C/c1ccccc1O — EC50 (Sterol carrier protein 2 (Aedes aegypti, UniProt Q86PR3); ligand displacement, fluorescence): 2020 nM
CCOc1ccc(CNc2cccnc2C)cc1 — EC50 (MTNR1A; cAMP, agonist, luciferase): 3620 nM
O=C(CCCCCN1CCN(c2ccccc2-c2ccccc2)CC1)NC1CCCc2ccccc21 (stereo not drawn) — EC50 (HTR1F; G protein activation, agonist, BRET): 315 nM
CC1=NN(/C(=N\c2ccc(OC(F)(F)F)cc2)Nc2nnc(C)s2)C(c2ccc(C)cc2)S1 (stereo not drawn) — EC50 (AVPR2; cAMP, positive allosteric modulator): 9200 nM
COc1cc(C(=O)N2CCc3c(cccc3OC)C2)on1 — EC50 (MTNR1A; cAMP, agonist, luciferase): 102 nM
CN(C)c1ncnc2c1ncn2[C@@H]1O[C@H](CO)[C@@H](O)[C@H]1O — EC50 (ADORA3 (Homo sapiens, UniProt P0DMS8, I253N/V169F); G protein activation, agonist): 36000 nM
CCOC(=O)c1nc(N(C)CCc2noc(C)n2)ccc1Br — EC50 (MTNR1A; cAMP, agonist, luciferase): 69.3 nM
CC1=NN(/C(=N\c2ccc(F)cc2)Nc2nnc(C)s2)C(c2ccc(C)cc2)S1 (stereo not drawn) — EC50 (AVPR2; cAMP, positive allosteric modulator): 40700 nM
COc1ccc(CN(C(=O)CC2CC2C)c2ccncc2)cc1 (stereo not drawn) — EC50 (MTNR1A; cAMP, agonist, luciferase): 826 nM
COc1cc2c(CCNC(C)=O)c[nH]c2cc1I — EC50 (MTNR1B; cAMP, agonist, TR-FRET): 6.61 nM
COC(=O)c1coc(CSc2nnc(C3CC3)[nH]2)c1 — EC50 (MTNR1A; cAMP, agonist, luciferase): 1.51 nM
CCc1ccc2scc(CCNC(C)=O)c2c1 — EC50 (MTNR1B; GTPγS binding, agonist, radiometric; cell membranes): 13.8 nM
CN(Cc1cccc(C(F)(F)F)c1)C(=O)c1cccc(OC(F)F)c1 — EC50 (MTNR1A; cAMP, agonist, luciferase): 36.9 nM
O=c1cc(NCCc2ccccc2F)[nH]c(=O)[nH]1 — EC50 (GPR84 (Homo sapiens, UniProt Q9NQS5); cAMP, agonist): 99.5 nM

Excerpt of the above:
CCc1ccc2scc(CCNC(C)=O)c2c1 — EC50 (MTNR1B; GTPγS binding, agonist, radiometric; cell membranes): 13.8 nM
COc1cc2c(CCNC(C)=O)c[nH]c2cc1I — EC50 (MTNR1B; cAMP, agonist, TR-FRET): 6.61 nM
CCCC[C@H](NC(C)=O)C(=O)N[C@H]1CC(=O)NCCCC[C@@H](C(=O)N[C@@H](C(=O)N2CCC[C@@H]2C(N)=O)C(C)C)NC(=O)[C@H](Cc2c[nH]c3ccccc23)NC(=O)[C@H](CCCN=C(N)N)NC(=O)[C@@H](Cc2ccc3ccccc3c2)NC(=O)[C@@H]2CCCN2C1=O — EC50 (MC3R (Homo sapiens, UniProt P41968); cAMP, agonist): > 1000 nM
